Assay results gathered from unrelated publications.
Protocols differ between the studies behind these lines. “And” joins repeats or separate records; there may be more than shown. ± gives the spread as reported.
UniProt Q96SB4, sequence (whole entry, looked up): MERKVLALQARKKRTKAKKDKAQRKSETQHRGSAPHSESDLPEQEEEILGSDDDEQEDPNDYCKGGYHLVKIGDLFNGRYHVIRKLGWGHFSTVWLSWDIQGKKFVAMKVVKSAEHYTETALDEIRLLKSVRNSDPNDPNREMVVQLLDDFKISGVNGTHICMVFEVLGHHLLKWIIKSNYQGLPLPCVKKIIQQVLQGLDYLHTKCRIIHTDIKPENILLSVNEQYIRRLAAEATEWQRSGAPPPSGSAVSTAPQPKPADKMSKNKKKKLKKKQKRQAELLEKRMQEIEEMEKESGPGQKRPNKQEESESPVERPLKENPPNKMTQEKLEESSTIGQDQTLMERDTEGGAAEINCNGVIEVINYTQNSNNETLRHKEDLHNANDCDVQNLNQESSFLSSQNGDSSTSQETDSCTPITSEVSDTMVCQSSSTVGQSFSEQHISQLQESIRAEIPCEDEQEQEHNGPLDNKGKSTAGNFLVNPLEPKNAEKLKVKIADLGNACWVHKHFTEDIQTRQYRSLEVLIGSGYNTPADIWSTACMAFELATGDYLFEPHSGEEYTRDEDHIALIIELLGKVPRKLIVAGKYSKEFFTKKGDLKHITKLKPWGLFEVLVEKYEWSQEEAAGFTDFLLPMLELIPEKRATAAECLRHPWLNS
UniProt Q8TDX7, sequence (whole entry, looked up): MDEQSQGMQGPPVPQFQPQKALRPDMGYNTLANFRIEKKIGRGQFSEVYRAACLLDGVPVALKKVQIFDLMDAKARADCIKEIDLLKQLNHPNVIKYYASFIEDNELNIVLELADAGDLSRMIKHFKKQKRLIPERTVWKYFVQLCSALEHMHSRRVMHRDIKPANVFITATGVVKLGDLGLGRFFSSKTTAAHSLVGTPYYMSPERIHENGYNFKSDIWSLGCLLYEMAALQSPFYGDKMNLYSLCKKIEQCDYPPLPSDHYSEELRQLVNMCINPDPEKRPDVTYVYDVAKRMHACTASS
UniProt Q8TBX8, sequence (whole entry, looked up): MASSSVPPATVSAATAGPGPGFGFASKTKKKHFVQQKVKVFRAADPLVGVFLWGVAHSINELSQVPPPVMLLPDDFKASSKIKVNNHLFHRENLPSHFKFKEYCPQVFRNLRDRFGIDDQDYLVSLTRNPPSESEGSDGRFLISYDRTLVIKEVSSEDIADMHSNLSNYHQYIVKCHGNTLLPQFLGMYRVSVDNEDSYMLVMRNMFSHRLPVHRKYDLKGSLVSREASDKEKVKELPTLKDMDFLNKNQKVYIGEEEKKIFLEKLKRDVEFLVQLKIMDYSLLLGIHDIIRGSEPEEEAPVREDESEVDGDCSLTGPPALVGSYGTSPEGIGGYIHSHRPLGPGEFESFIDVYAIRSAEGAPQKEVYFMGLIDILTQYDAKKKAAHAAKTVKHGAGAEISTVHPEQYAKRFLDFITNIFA

SMILES	tested on	assay	system	conditions	scale	quantity	result
NC1CCN(C(=O)Oc2ccc(C3CCCC4(C3)OOC3(O4)C4CC5CC(C4)CC3C5)cc2)CC1 (racemic)	–	–	male Sprague-Dawley rat, plasma	intravenous, 10 mg/kg	–	clearance	57.3 mL/min/kg
COc1ccccc1-c1n[nH]c2nc(N[C@H]3CC[C@H](NS(=O)(=O)CC(C)C)CC3)ncc12	–	bead binding, competition bead pull-down, item: LMJF.36.5010	Leishmania donovani extract	10 µM	relative to: vehicle	relative abundance	1.13
Cc1cc(C(=O)Nc2nc3cccc(C)c3n2[C@H]2CCCCN(C(=O)/C=C/CN(C)C)C2)ccn1	Trypanosoma brucei	propidium iodide flow cytometry	bloodstream form	concentration not given, 8 h	–	cells in G2 phase	35.2%
CCCCCCCCCCCCCC(=O)N[C@H](CCN)C(=O)N[C@@H]1C(=O)N[C@@H](CCN)C(=O)N[C@@H](CC(C)C)C(=O)N[C@@H](CCN)C(=O)N[C@H](Cc2ccccc2)C(=O)N[C@@H](CC(C)C)C(=O)N[C@@H](CCN)C(=O)N[C@H](CCN)C(=O)N[C@@H](C(C)C)C(=O)N[C@@H](CC(=O)O)C(=O)O[C@@H]1C	–	–	rat, plasma	intravenous, 5 mg/kg	–	clearance	1.48 mL/min/kg
COc1ccccc1-c1n[nH]c2nc(NC3CCN(C(=O)Cc4ccc(F)cc4F)CC3)ncc12	–	bead binding, competition bead pull-down, item: LINJ.22.0350	Leishmania donovani extract	10 µM	relative to: vehicle	relative abundance	1.08
CN(C)[C@H]1C[C@@]23CC[C@@]4(O2)C(=CC[C@]2(C)[C@@H](c5ccc6ccncc6c5)CC[C@H]24)C=C3[C@@H](O)[C@@H]1O	Phosphatidylinositol 5-phosphate 4-kinase type-2 gamma (PIP4K2C, Homo sapiens, UniProt Q8TBX8)	ATP probe labelling, inhibitor, KiNativ profiling	–	0.1 µM	–	inhibition	-23.2%
CCCCCCCCCCCCCCCC(=O)N[C@@H](CCC(=O)NCCOCCOCCC(=O)NCCOCCOCCC(=O)NCCCC[C@H](NC(=O)[C@H](CC(=O)O)NC(=O)[C@H](CC(C)C)NC(=O)[C@H](Cc1ccc(O)cc1)NC(=O)[C@H](CCCCN)NC(=O)[C@H](CO)NC(=O)[C@H](Cc1ccc(O)cc1)NC(=O)[C@H](CC(=O)O)NC(=O)[C@H](CO)NC(=O)[C@@H](NC(=O)[C@H](Cc1ccccc1)NC(=O)[C@@H](NC(=O)CNC(=O)[C@H](CCC(N)=O)NC(=O)[C@@H](CO)NC(=O)[C@@H](N)Cc1c[nH]cn1)[C@@H](C)O)[C@@H](C)O)C(=O)N[C@@H](CCCNC(=N)N)C(=O)N[C@@H](CCCNC(=N)N)C(=O)N[C@@H](C)C(=O)N[C@@H](CCC(N)=O)C(=O)N[C@@H](CC(=O)O)C(=O)N[C@@H](Cc1ccccc1)C(=O)N[C@H](C(=O)N[C@@H](CCC(N)=O)C(=O)N[C@@H](Cc1c[nH]c2ccccc12)C(=O)N[C@@H](CC(C)C)C(=O)N[C@@H](CC(C)C)C(=O)N[C@@H](CC(N)=O)C(=O)N[C@H](C(=O)NCC(=O)NCC(=O)N1CCC[C@H]1C(=O)N[C@@H](CO)C(=O)N[C@@H](CO)C(=O)NCC(=O)N[C@@H](C)C(=O)N1CCC[C@H]1C(=O)N1CCC[C@H]1C(=O)N1CCC[C@H]1C(=O)N[C@@H](CO)C(N)=O)[C@@H](C)O)C(C)C)C(=O)O	–	–	rhesus monkey, female	subcutaneous, 300 µg/kg once daily, 28 days	–	creatinine	45.4 ± 4.7 µmol/L
CC(C)[C@H]1NC(=O)C[C@H]2/C=C/CCSSC[C@@H](NC1=O)C(=O)N[C@H](Cc1cccc3ccccc13)C(=O)NCC(=O)O2	SRSF protein kinase 1 (SRPK1, Homo sapiens, UniProt Q96SB4)	enzyme activity, inhibitor	–	10 µM	–	inhibition	-3.5%
N=C(N)NCCC[C@@H](NC(=O)[C@H](N)Cc1c[nH]c2ccccc12)C(=O)N[C@H](CCCCN)C(=O)N[C@H](Cc1c[nH]c2ccccc12)C(=O)N[C@H](CCCNC(=N)N)C(=O)N[C@H](CCCCN)C(=O)N[C@H](Cc1c[nH]c2ccccc12)C(=O)N[C@H](CCCNC(=N)N)C(=O)N[C@H](CCCCN)C(=O)N[C@H](Cc1c[nH]c2ccccc12)C(=O)N[C@H](CCCNC(=N)N)C(=O)N[C@H](CCCCN)C(N)=O	–	–	mouse, lung	intravenous, 40 mg/kg single dose, 7 days	–	organ index	0.789
O=C1NC(=O)c2c1c1cc(F)c[n+]3c1c1c2c2cc(O)ccc2[n]1[Ru-4]312([N]=C=S)[S+]3CC[S+]1CC[S+]2CC3 (stereo not drawn)	Serine/threonine-protein kinase Nek7 (NEK7, Homo sapiens, UniProt Q8TDX7)	enzyme activity	–	100 nM, human enzyme, together with: 10 µM ATP	relative to: untreated	remaining activity	64%
CCc1nnc(-c2c(OC)cc(-c3cnc4cc(-c5cnn(C)c5)ccn34)cc2OC)o1	–	plasma protein binding	human plasma	–	–	fraction unbound	0.017
CC[C@H](C)[C@H](NC(=O)[C@H](CCCCN)NC(=O)CNC(=O)[C@H](CC(C)C)NC(=O)[C@H](Cc1ccccc1)NC(=O)[C@H](CCCCN)NC(=O)[C@H](CO)NC(=O)[C@H](Cc1ccccc1)NC(=O)[C@H](Cc1c[nH]c2ccccc12)NC(=O)[C@H](CCC(N)=O)NC(=O)[C@@H](NC(=O)[C@H](Cc1ccccc1)NC(=O)CCCCCNC(=O)CN1CCN(CC(=O)O)CCN(CC(=O)O)CCN(CC(=O)O)CC1)C(C)C)C(=O)N[C@@H](CCC(=O)O)C(=O)N1CCC[C@H]1C(=O)N[C@@H](CC(=O)O)C(=O)N[C@H](C(=O)N[C@@H](CO)C(=O)N[C@@H](CCC(N)=O)C(=O)N[C@H](C(=O)N[C@@H](CCC(N)=O)C(=O)N[C@@H](CC(=O)O)C(=O)N1CCC[C@H]1C(=O)N[C@@H](CC(N)=O)C(=O)N[C@@H](CC(=O)O)C(=O)N[C@@H](CCC(N)=O)C(=O)N[C@@H](Cc1ccc(O)cc1)C(=O)N[C@@H](CCC(=O)O)C(=O)N1CCC[C@H]1C(=O)N[C@@H](Cc1ccccc1)C(=O)O)C(C)C)C(C)C [copper-64 labelled]	–	–	C57BL/6 mice, thymus	together with: LPS 3 mg/kg intratracheal	–	tissue uptake	4.18 ± 0.6 %ID/g
CCCCCCCCCCCCCCCC(=O)OCC(CSC[C@H](N)C(=O)N[C@@H](CO)C(=O)N[C@@H](CCCCN)C(=O)N[C@@H](CCCCN)C(=O)N[C@@H](CCCCN)C(=O)N[C@@H](CCCCN)C(=O)NCCCCCC(=O)N[C@@H](CCCCN)C(=O)N[C@@H](CC(C)C)C(=O)N[C@H](C(=O)N[C@@H](Cc1ccccc1)C(=O)N[C@@H](Cc1ccccc1)C(=O)N[C@@H](Cc1ccc2ccccc2c1)C(=O)O)C(C)C)OC(=O)CCCCCCCCCCCCCCC (stereo partly drawn)	–	–	C57BL/6J mouse, serum	intraperitoneal, dose not given	–	serum ALT	12 U/L and 12.1 U/L and 12.2 U/L
CC(C)[C@@H]1NC(=O)CNC(=O)[C@H](CC(N)=O)NC(=O)[C@H](CCCNC(=N)N)NC(=O)[C@H](Cc2ccc(O)cc2)NC(=O)[C@H](C(C)C)NC(=O)[C@@H](NC(=O)[C@@H](NC(=O)[C@H](CC(N)=O)NC(=O)[C@H](Cc2c[nH]c3ccccc23)NC(=O)[C@H](C)NC(=O)[C@H](Cc2ccccc2)NC(=O)CNC(=O)[C@H](CCCCN)NC(=O)[C@H](Cc2ccccc2)NC(=O)[C@H](Cc2ccccc2)NC(=O)[C@H](CCCCN)NC(=O)OCC2c3ccccc3-c3ccccc32)C(C)C)CSSC[C@@H](C(=O)N[C@@H](Cc2c[nH]cn2)C(=O)N[C@@H](CCCNC(=N)N)C(=O)N[C@@H](CCCNC(=N)N)C(=O)N[C@@H](C)C(=O)N[C@@H](CC(N)=O)C(N)=O)NC(=O)[C@H](C(C)C)NC(=O)[C@H](CCCNC(=N)N)NC1=O	–	–	ICR mice, serum	intraperitoneal, 10 mg/kg, day 5	–	phosphorus	3.37 ± 0.18 mmol/L
C=CC(=O)Nc1cccc(Cn2ncc3cnc(Nc4cnn(CCOC)c4)nc32)c1	–	–	female Sprague-Dawley rat	oral, 180 mg/kg/day, day 28, 28-day subacute toxicity	–	blood MCV	60.7 ± 2.74 fL
CC(C)[C@H](NC(=O)[C@H](Cc1c[nH]c2ccccc12)NC(=O)[C@H](CCCNC(=N)N)NC(=O)[C@H](CCCNC(=N)N)NC(=O)[C@@H](NC(=O)[C@@H](NC(=O)[C@H](CCCNC(=N)N)NC(=O)[C@@H](NC(=O)[C@@H](NC(=O)[C@H](CCCNC(=N)N)NC(=O)[C@H](CCCNC(=N)N)NC(=O)[C@@H](NC(=O)[C@H](Cc1c[nH]c2ccccc12)NC(=O)[C@H](CCCNC(=N)N)NC(=O)[C@H](CCCNC(=N)N)NC(=O)[C@@H](NC(=O)[C@H](CCCNC(=N)N)NC(=O)[C@H](CCCNC(=N)N)NC(=O)[C@@H](NC(=O)[C@H](Cc1c[nH]c2ccccc12)NC(=O)[C@H](CCCNC(=N)N)NC(=O)[C@@H](N)CCCNC(=N)N)C(C)C)C(C)C)C(C)C)C(C)C)C(C)C)C(C)C)C(C)C)C(=O)N[C@@H](CCCNC(=N)N)C(=O)N[C@@H](CCCNC(=N)N)C(=O)O	–	item: kidney	mice	intravenous, 30 mg/kg	relative to: body weight	organ weight	1.44%
CC(=O)N[C@H](C(=O)N[C@@H](CCCC(=O)OC(C)(C)C)C(=O)N[C@@H](CCC1CCCCC1)C(=O)N[C@@H](CC(=O)O)C(=O)COC(=O)c1c(C)cccc1C)C(C)(C)C	–	–	C57BL/6N mouse, female, whole blood	intraperitoneal, dose not given, 0.08 h	–	blood concentration	208 µM and 215 µM
CC(C)(C)C(=O)OCOP(=O)(OCOC(=O)C(C)(C)C)C1CCCN(O)C1=O (stereo not drawn)	OVCAR-3	–	–	–	–	log LC50	> -4 log M
C#CCCCNC(=O)CC(Cc1ccc(F)cc1)NC(=O)C(Cc1ccc(Cl)cc1Cl)NC(=O)C(N)Cc1ccccc1C#N (stereo not drawn)	–	–	CD-1 mouse, liver microsomes	1 µM, time not given, epoxide hydrolase conditions	–	remaining compound	57%
CC(=O)NCCCC[C@@H]1NC(=O)[C@H](Cc2c[nH]c3c(C)cccc23)NC(=O)[C@H]([C@@H](C)O)NC(=O)[C@H](CC(N)=O)NC(=O)[C@@H](NC(C)=O)C(C)(C)SSC(C)(C)[C@@H](C(=O)N[C@@H](Cc2ccc(OCCN)cc2)C(=O)N[C@@H](Cc2ccc3ccccc3c2)C(=O)NC2(C(=O)N[C@@H](CCC(=O)O)C(=O)N[C@@H](CC(N)=O)C(=O)N[C@@H](Cc3cccnc3)C(=O)N(C)CC(N)=O)CCOCC2)NC1=O	–	–	cynomolgus monkey, cecum	intravenous, 1 mg/kg	–	tissue to plasma ratio	55%
C=Cc1c(C)c2cc3nc(c(CC(=O)[O-])c4[n-]c(cc5nc(cc1[n-]2)C(C)=C5CC)c(C)c4C(=O)[O-])C(CCC(=O)[O-])C3C.[Cu+2].[Na+].[Na+].[Na+] (stereo not drawn)	–	–	Wistar rat	oral, 28 days daily	–	NOAEL	> 1000 mg/kg bw
O=C1NC2(CC2)COc2ncc(F)cc2[C@H]2COCCN2c2ccn3ncc1c3n2	–	–	Sprague-Dawley rats, female, blood	oral, 2.5 mg/kg/day, end of recovery, 4-week subacute toxicity	–	eosinophil percentage	1.74 ± 0.42%
Cc1ccc(OCC(=O)N(Cc2cccs2)c2ccn[nH]2)cc1	–	in vivo micronucleus	Crl:CD-1(ICR) mice, male, bone marrow polychromatic erythrocytes	oral, 1000 mg/kg/day, 3 days	–	micronucleated PCEs	0.03 ± 0.03%
C=Cc1c(C)c2cc3nc(c(CC(=O)O)c4[nH]c(cc5nc(cc1[nH]2)C(C)=C5CC)c(C)c4C(=O)O)[C@@H](CCC(=O)NCCCC[C@H](NC(C)=O)C(=O)N[C@@H](Cc1ccccc1)C(=O)N[C@@H](Cc1ccccc1)C(=O)N[C@H](C(=O)N[C@@H](CC(C)C)C(=O)N[C@@H](CCCCN)C(=O)N[C@@H](CO)C(=O)NCC(=O)N[C@@H](CCC(N)=O)C(=O)N[C@@H](Cc1ccc(O)cc1)C(=O)N[C@@H](C)C(=O)N[C@@H](CO)C(=O)N[C@@H](Cc1ccc(O)cc1)C(=O)N[C@@H](Cc1c[nH]cn1)C(=O)N[C@@H](CS)C(=O)N[C@@H](Cc1c[nH]c2ccccc12)C(=O)N[C@@H](CS)C(=O)N[C@@H](Cc1c[nH]c2ccccc12)C(=O)N[C@@H](CCCNC(=N)N)C(=O)N[C@@H](CC(=O)O)C(=O)N1CCC[C@H]1C(=O)NCC(=O)N[C@@H](CCCNC(=N)N)C(=O)N[C@@H](CO)C(=O)NCC(=O)NCC(=O)N[C@@H](CO)C(=O)N[C@@H](CCCCN)C(N)=O)C(C)C)[C@@H]3C	–	–	mouse, blood	0 h	–	blood concentration	187 µg/mL
